Results from different studies.
A part holds a random share of what one study measured. Substitutions count along the parent as printed.

Study 1 — target: CCND2, cyclin fold, Cln2 fusion (human); method: yeast growth competition, sequencing; matrix: yeast; notes: weak parent motif; baseline: not given; direction: higher = stronger binding; endpoint: normalised enrichment score
Parent: MASTL docking peptide (human); PMIAKNLMCELDE; partner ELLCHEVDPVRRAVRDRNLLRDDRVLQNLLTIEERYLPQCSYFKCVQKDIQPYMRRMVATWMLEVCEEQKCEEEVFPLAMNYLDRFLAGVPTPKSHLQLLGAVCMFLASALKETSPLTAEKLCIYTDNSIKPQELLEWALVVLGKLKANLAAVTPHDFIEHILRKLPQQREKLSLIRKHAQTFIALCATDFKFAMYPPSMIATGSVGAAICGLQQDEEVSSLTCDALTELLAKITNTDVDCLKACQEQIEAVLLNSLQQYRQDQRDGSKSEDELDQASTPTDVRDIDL
PMIAKKLMCELDE [N6K]: 0.241
PMIAKNLMCRLDE [E10R]: -0.0253
PMIAKNLMCELIE [D12I]: -0.408
PMIAKNLMKELDE [C9K]: -0.126
PMIAKNLMCEMDE [L11M]: -0.763
PMIAKNLTCELDE [M8T]: -0.00658
PMIYKNLMCELDE [A4Y]: -0.0978
PMIAKNLMCGLDE [E10G]: 0.0357
PLIAKNLMCELDE [M2L]: 0.327
PMIAKNLMCMLDE [E10M]: -0.01
PSIAKNLMCELDE [M2S]: 0.387
PMIAKNLMCVLDE [E10V]: 0.206

Study 2 — method: RNA Bind-n-Seq; form: RNA; matrix: in vitro; concentration: 365 nM; baseline: no-protein control; direction: higher = stronger binding; endpoint: RBNS enrichment (R)
Target: RNA binding protein fox-1 homolog 2, RRM domain, GST-SBP tag (RBFOX2, Homo sapiens, UniProt O43251-10, residues 100-194)
Notes: natural RNA segment, single round, ends assumed
Constant ends, left off below: GGGAGUUCUACAGUCCGACGAUC … UGGAAUUCUCGGGUGCCAA
Target sequence (chain): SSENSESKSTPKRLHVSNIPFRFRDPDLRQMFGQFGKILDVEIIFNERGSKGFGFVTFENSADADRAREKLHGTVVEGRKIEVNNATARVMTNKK
GGUUCUGAGAGGGGGCUUCUAGGAAGGCCCCAGCCCUAGUCCUAGGCGACUUGAAUAAAGUGGGAGGUCAAACAUGGGCCUUCGGCAUUGGGUUUCUAGGGAAUAUGGCU: 0.314
CUAGUUUUGUCUAUAUAUCUUUUCCAUGAAAUUAUAGCUAUCUAUGUAUUUGUAGUUGUUUCUUUCAAAAACAAUUUUUAAAAAUUGGAAAGGGAUAUAUAUGAGAAGUG: 0.485
AGAGGGUGAGAUGGAUCCCAUUAACUAAUAUAGGCAUUGUCAGUGAUUUAUGCUGGUGGAGGUGUUGUUUGUCCUAUGGAAGAUAUUUUCUACUGAGCUGGGCUACUGUA: 0.682
UGUCCUGCCGCCCGGCUCAGUCGGCCAGACUUCCUCUAGGAGUGGUGCUGCUACCUUGUAUGUUUACAUAAUGCUUUAGCCCAAGGACACAUCACCAACCCAUGGACUCG: 0.292
CUGUGCCUUGAUCAUUUCGGUGACUGAAGAGUCUGACCCCAGAGGCCUUGGGGACCCUUUCUUCUCUCUGAUGAUGGCAGUCUGGAAUAAAGCACUGUCACCUUUGACUC: 0.333
CACCGGAAUCUUUCCCCCUUCGUGUGUUUAGUGGAAACAUCCCCCCUCCUAAACAAACUAACAAAACCAAUAUGGAGGUGGGGGGAGAUGAAGUCCUGUGGAACUGUCUA: 0.3
UUUCUGUCUCAGUGUGAUCCACUAACCCACAGGAUCAUUUGGAACCUUGAAUAGCUCUGCUUGGACAAUGGGGUUGGGGAAUAGGGUUGUCUUUCCUAUGAAAAUGCCAU: 0.482
GAAGAACCACGAGGCUCUGGCUGAGCCUCCCUCUGGAGUGCUAGUGUACCUGUGGGUCUGUCCUCUGCUCUGUGCAGAUGGGUUUUACUGUCUGCUGUGUUUUCUUACGA: 0.29
AAUUCUUAGCACUGGUGUAAAUAUCAUGGUGCCUACUCGAAAGAAAUGUAGAUGCUAUGCAUUUUGAAAAUAAUCUGCAUCAGUUAGAACUGCAGAAGUUUUUUUAAUGC: 0.406
UUGCCAGGUAGAUAAAACUGACAUAGAGAAAAGGCUGGAGAGAGAUUCUGUUGCAUAGACUAGUCCUAUGGAAAAAACCAAGCUUCGUUAGAAUGUCUGCCUUACUGGUU: 1.37
CAUGCAUCCUUGGGCAGGUUGCCCUUAAAUCUUACACUGUGGUGAAGGGAUGUUUUUUUUGUAAUGCUGCAGUAGAGUUGGAGUACUUAGUUCUCUUGUUGUCCAGUAUA: 1.11
UUUACUGCACUUCACAAGGUUCUAAGAUGUGGAGAGUUCACUUGGAUUGCAGUAGCCCAUUGGUUGUUCAUAUAUUUAAAUAAAAUGGUCUACAAACUAUUUUUCAAACA: 0.992

Study 3 — method: RNA Bind-n-Seq; form: RNA; matrix: in vitro; concentration: 100 nM; baseline: input RNA pool; direction: higher = stronger binding; endpoint: bound/input enrichment
Target: RING finger protein unkempt homolog, zinc fingers 1-6, SBP tag (UNK, Homo sapiens, UniProt Q9C0B0, residues 30-357)
UniProt Q9C0B0, sequence (30-357, looked up): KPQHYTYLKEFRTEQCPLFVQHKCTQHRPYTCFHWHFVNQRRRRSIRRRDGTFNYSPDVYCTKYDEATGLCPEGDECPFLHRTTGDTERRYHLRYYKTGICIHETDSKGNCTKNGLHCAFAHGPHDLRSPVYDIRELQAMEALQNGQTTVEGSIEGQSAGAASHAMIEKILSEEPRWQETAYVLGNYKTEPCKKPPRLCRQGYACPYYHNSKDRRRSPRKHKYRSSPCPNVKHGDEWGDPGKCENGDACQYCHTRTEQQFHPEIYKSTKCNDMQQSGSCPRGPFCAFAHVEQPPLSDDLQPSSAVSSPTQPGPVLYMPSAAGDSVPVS
Notes: RNA with constant flanks, vertebrate orthologous sites, ends assumed
Constant ends, left off below: GGGAGUUCUACAGUCCGACGAUC … CAACAGAGGAUUGAGCAUCA
UUACAGUCAUUGAUGGACUCUAUUUUUUUAUUAUUACUUGGACCUUGGUCGUUUUUAUACUAGCAAAAUGUCUUGUUUAAUUUGUGUUUUUUGGGGGGAGGGAGGGAGUGAACUUGCUGA: 2.25 ratio
AAAACCCCGAUUUUAGAUGUGAUAUUUAGGCUUUCAUUCCAGUUUGUUUUGUUUUUUGUUUAGAUACCAAUCUUUUAAAUUCUUGCAUUUUAGUAAGAAAGCUACCUUUUUAUGGAUGUU: 1.18 ratio
GGAAAGUUACAGACCAGACACUGAAAACAGGAGCACAGGAUCCUGGUUGUCGUCCUCUUUGAGGAACAGAUGUACACCUCUCUUCUCCAGAAGAAGAAGAGAAGGAAGAGAUGAAUCCAC: 0.33 ratio
CUGAAGCUUUGUGUUUGGCUGCACCUGCAUAAACUGCUACAAAUAGAAUAAAGAAUCUCAUAGCCUGUAUCUAUCAUUUAGAUGCAUGGAAAAACGGGCUUUGCACACAGUGGGUUUGGA: 1.43 ratio
UACAUCUGGUGAUAUUUGGCCUGGCCUUUCAGCUUAUGAUAAUAGCCCCAGAUCACCCCACAGUCCUUCACCUAUUGCUACACCACCUAGUCAGAGUUCAUCUUGCUCUGAUGCCCCCAU: 0.72 ratio
UUGGAACCAGCUCUCCAAAUAGGAAUAGUAGUAAAAAAAGUAAACAAAAUGAUAAUUGUACAGAAAAAACAGAAGCGAAAUCAUGUAAAGUAAAUGCUGCUGGUGUUCUAGGCCCUAAAG: 1.52 ratio
CUCUUUUCAAGGUUGGAUGUACUGGAAAAGUCAUAGGAAUUGAUCACAUUAAAGAGCUAGUAGAUGACUCAAUAAAUAAUGUCAGGAAGGACGAUCCAACACUUCUGUCUUCAGGGAGAG: 0.636 ratio
UUGGGGCCAUACAUACGAAAGGUGUAUCAAAUGCAAAAUGAAACUGUCACUUAAAAUAGGGUUGUUACACUUAAGCUACAAAUAGGUUUCCUUAAACCAGAGCUGCACUGCCCUCGUCUG: 0.355 ratio
GUGUUUUGGUACCACUCAAUGUACCAAUACUCAUCCUUUUUUCAUUAUACCAACUAUCGCUAGAAGUAGGAGUUUAAUAUUUUAAAAAUUUUACAUUGCUGUAUAUUCAAAAUUUUAAAG: 0.517 ratio
UAUUAGGAUCCUACCAGCCUGUUAACCUCUCGUCUGUGCACAGCUUCAAAUGUUACUGUCUAGUUAGAUUUUUAUUUAAAAUAUGAAAAACUGCUUUUCCCAAGACGUUUUUUAAAAAAA: 1.16 ratio
GUUAGGUCAUGACCCUUACAGGUUAGGUCAUGAUGCCUACAGGUUAGGGCAAGACCCCUAUAGAUUAGGCCAUGAUCCCUACAGACUAACUCCUGAUCCCUAUAGGAUGUCACCUAGACC: 0.425 ratio

Other studies, line by line
PhoQ, residues 284 288 289 292 302 303 AANNSF
fold induction (PhoP, residues 12 14 15 18 19 VQALL (Escherichia coli, UniProt P23836); Sort-seq, item: YFP reporter; E. coli; PhoQ-PhoP variant library, with: 10 µM Mg2+; baseline: high Mg2+ state, higher = stronger signaling): 13.6

For quick reference, copied from above (study 2):
UUUCUGUCUCAGUGUGAUCCACUAACCCACAGGAUCAUUUGGAACCUUGAAUAGCUCUGCUUGGACAAUGGGGUUGGGGAAUAGGGUUGUCUUUCCUAUGAAAAUGCCAU: 0.482
GAAGAACCACGAGGCUCUGGCUGAGCCUCCCUCUGGAGUGCUAGUGUACCUGUGGGUCUGUCCUCUGCUCUGUGCAGAUGGGUUUUACUGUCUGCUGUGUUUUCUUACGA: 0.29
AAUUCUUAGCACUGGUGUAAAUAUCAUGGUGCCUACUCGAAAGAAAUGUAGAUGCUAUGCAUUUUGAAAAUAAUCUGCAUCAGUUAGAACUGCAGAAGUUUUUUUAAUGC: 0.406
UUGCCAGGUAGAUAAAACUGACAUAGAGAAAAGGCUGGAGAGAGAUUCUGUUGCAUAGACUAGUCCUAUGGAAAAAACCAAGCUUCGUUAGAAUGUCUGCCUUACUGGUU: 1.37
CAUGCAUCCUUGGGCAGGUUGCCCUUAAAUCUUACACUGUGGUGAAGGGAUGUUUUUUUUGUAAUGCUGCAGUAGAGUUGGAGUACUUAGUUCUCUUGUUGUCCAGUAUA: 1.11
UUUACUGCACUUCACAAGGUUCUAAGAUGUGGAGAGUUCACUUGGAUUGCAGUAGCCCAUUGGUUGUUCAUAUAUUUAAAUAAAAUGGUCUACAAACUAUUUUUCAAACA: 0.992
